{"data": "Published values from different studies", "note": "Each numbered part is a random draw from the data of one study; scales do not carry over between parts. Changes are numbered by the printed parent chain."}
{"data": "Study 1", "target": "CCNB1, cyclin fold, Cln2 fusion (human)", "technique": "yeast growth competition, sequencing", "medium": "yeast", "notes": "weak parent motif", "relative to": "not given", "direction": "higher = stronger binding", "starting sequence": "ORC1 docking peptide (human); PRARKRLELGNLG"}
{"Change": "PRARPRLELGNLG [K5P]", "normalised enrichment score": 0.991}
{"Change": "PRARKRLELGNLL [G13L]", "normalised enrichment score": -0.166}
{"Change": "PRARKTLELGNLG [R6T]", "normalised enrichment score": 1.14}
{"Change": "PTARKRLELGNLG [R2T]", "normalised enrichment score": 1.39}
{"Change": "FRARKRLELGNLG [P1F]", "normalised enrichment score": 0.481}
{"Change": "PRHRKRLELGNLG [A3H]", "normalised enrichment score": 0.702}
{"Change": "PRARKRRELGNLG [L7R]", "normalised enrichment score": 1.17}
{"Change": "PRARKRLETGNLG [L9T]", "normalised enrichment score": -0.073}
{"Change": "IRARKRLELGNLG [P1I]", "normalised enrichment score": 0.705}
{"Change": "PRARKRLELGILG [N11I]", "normalised enrichment score": 0.0777}
{"Change": "PRARKSLELGNLG [R6S]", "normalised enrichment score": 0.349}
{"Change": "PRARKELELGNLG [R6E]", "normalised enrichment score": 0.873}
{"Change": "PRARKRLELGNLV [G13V]", "normalised enrichment score": 0.221}
{"Change": "PRARKRLFLGNLG [E8F]", "normalised enrichment score": 0.758}
{"Change": "PRKRKRLELGNLG [A3K]", "normalised enrichment score": 0.258}
{"Change": "PRARKRLELGNKG [L12K]", "normalised enrichment score": 0.678}
{"Change": "PRARKRLEFGNLG [L9F]", "normalised enrichment score": 0.956}
{"Change": "PMARKRLELGNLG [R2M]", "normalised enrichment score": 0.288}
{"data": "Study 2", "target": "ABI1, truncated, D143A, DHFR fusion (Arabidopsis thaliana)", "technique": "DHFR PCA, deep sequencing", "medium": "yeast", "notes": "methotrexate growth selection, single substitutions", "with": "(+)-ABA 0.032 µM", "relative to": "wild-type fitted maximum", "direction": "higher = stronger binding", "starting sequence": "PYL1, truncated, DHFR fusion (Arabidopsis thaliana); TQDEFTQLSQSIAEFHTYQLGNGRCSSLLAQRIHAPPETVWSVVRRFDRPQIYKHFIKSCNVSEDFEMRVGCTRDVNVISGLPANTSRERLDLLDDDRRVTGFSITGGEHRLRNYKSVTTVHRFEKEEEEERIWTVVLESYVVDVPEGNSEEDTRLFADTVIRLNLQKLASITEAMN; partner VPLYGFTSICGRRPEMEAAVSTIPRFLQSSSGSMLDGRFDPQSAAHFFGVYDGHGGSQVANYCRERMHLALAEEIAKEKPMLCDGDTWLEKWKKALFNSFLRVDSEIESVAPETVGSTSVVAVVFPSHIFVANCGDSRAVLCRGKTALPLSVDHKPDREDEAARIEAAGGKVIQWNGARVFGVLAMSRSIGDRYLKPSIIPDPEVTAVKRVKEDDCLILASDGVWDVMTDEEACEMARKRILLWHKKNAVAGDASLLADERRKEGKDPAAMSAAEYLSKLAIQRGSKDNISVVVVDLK"}
{"Change": "S171G", "relative binding score": "2.93%"}
{"Change": "F124Y", "relative binding score": "15.9%"}
{"Change": "R123A", "relative binding score": "47.5%"}
{"Change": "V145S", "relative binding score": "-13.1%"}
{"Change": "R74K", "relative binding score": "2.02%"}
{"Change": "E151N", "relative binding score": "3.23%"}
{"Change": "R88Q", "relative binding score": "26.4%"}
{"Change": "T135C", "relative binding score": "8.23%"}
{"Change": "T73D", "relative binding score": "4.41%"}
{"Change": "N85E", "relative binding score": "37.5%"}
{"Change": "E139K", "relative binding score": "5.21%"}
{"Change": "V100Q", "relative binding score": "2.62%"}
{"Change": "E38W", "relative binding score": "4.78%"}
{"Change": "Y141T", "relative binding score": "-3.26%"}
{"Change": "L82R", "relative binding score": "5.88%"}
{"Change": "G21M", "relative binding score": "6.41%"}
{"Change": "I162T", "relative binding score": "8.66%"}
{"Change": "H110C", "relative binding score": "27.5%"}
{"Change": "E4W", "relative binding score": "18.7%"}
{"Change": "S11W", "relative binding score": "15.2%"}
{"Change": "N177M", "relative binding score": "29.5%"}
{"Change": "S27F", "relative binding score": "-4.49%"}
{"Change": "Q2K", "relative binding score": "16.1%"}
{"Change": "H16V", "relative binding score": "3.66%"}
{"Change": "G148M", "relative binding score": "-9.57%"}
{"data": "Study 3", "target": "UBE2E2 UBC core domain (UniProt Q96LR5)", "technique": "yeast two-hybrid", "medium": "yeast", "notes": "mostly zero background", "relative to": "not given", "direction": "higher = stronger interaction", "B1": "TRIM31 RING domain (UniProt Q9BZY9); chain FVNKLQEEVICPICLDILQKPVTIDCGHNFCLKCITQIGETSCGFFKCPLCKTSVRKNAIRF", "B2": "TRIM26 RING domain (UniProt Q12899); chain PLRSLEEEVTCSICLDYLRDPVTIDCGHVFCRSCTTDVRPISGSRPVCPLCKKPFKKENIRP", "B3": "RNF183 RING domain (UniProt Q96D59); chain EQQGRELEAECPVCWNPFNNTFHTPKMLDCCHSFCVECLAHLSLVTPARRRLLCPLCRQPTVLASGQP", "B4": "RNF187 RING domain (UniProt Q5TA31); chain ALPAGPAEAACALCQRAPREPVRADCGHRFCRACVVRFWAEEDGPFPCPECADDCWQRAVEP", "B5": "TRIM22 RING domain (UniProt Q8IYM9); chain VKVDIEKEVTCPICLELLTEPLSLDCGHSFCQACITAKIKESVIISRGESSCPVCQTRFQPGNLRP", "B6": "ANAPC11 RING domain (UniProt Q9NYG5); chain GICRMAFNGCCPDCKVPGDDCPLVWGQCSHCFHMHCILKWLHAQQVQQHCPMCRQEWKFKE", "B7": "DEF8 RING domain (UniProt Q6ZN54); chain AGRLGCSLTEIHTLFAKHIKLDCERCQAKGFVCELCREGDVLFPFDSHTSVCADCSAVFHRDCYYDNSTTCPKCARLSLRK", "B8": "RNF152 RING domain (UniProt Q8N8N0); chain ETLSQDSLLECQICFNYYSPRRRPKLLDCKHTCCSVCLQQMRTSQKDVRCPWCRGVTKLPPGFS", "B9": "TRIM60 RING domain (UniProt Q495X7); chain ALVNLQEESSCPICLEYLKDPVTINCGHNFCRSCLSVSWKDLDDTFPCPVCRFCFPYKSFRR", "B10": "RLIM RING domain (UniProt Q9NVW2); chain SFGENDALKTCSVCITEYTEGNKLRKLPCSHEYHVHCIDRWLSENSTCPICRRAVLASGNRE", "B11": "RNF122 RING domain (UniProt Q9H9V4); chain AKKLQLYGQTCAVCLEDFKGKDELGVLPCQHAFHRKCLVKWLEVRCVCPMCNKPIASPSEAT", "B12": "TRIM37 RING domain (UniProt O94972); chain SVESIAEVFRCFICMEKLRDARLCPHCSKLCCFSCIRRWLTEQRAQCPHCRAPLQLRELVN", "sequence of UniProt Q96LR5 (whole entry, looked up)": "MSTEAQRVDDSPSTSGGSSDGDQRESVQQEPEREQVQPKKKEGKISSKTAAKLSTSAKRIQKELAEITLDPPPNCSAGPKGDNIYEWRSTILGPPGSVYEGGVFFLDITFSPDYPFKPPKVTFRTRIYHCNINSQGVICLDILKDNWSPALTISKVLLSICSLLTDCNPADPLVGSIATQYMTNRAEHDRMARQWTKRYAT"}
{"Sequence": "B1 (TRIM31 RING domain)", "lacZ reporter activity": 0}
{"Sequence": "B2 (TRIM26 RING domain)", "lacZ reporter activity": 0}
{"Sequence": "B3 (RNF183 RING domain)", "lacZ reporter activity": 0}
{"Sequence": "B4 (RNF187 RING domain)", "lacZ reporter activity": 0}
{"Sequence": "B5 (TRIM22 RING domain)", "lacZ reporter activity": 0}
{"Sequence": "B6 (ANAPC11 RING domain)", "lacZ reporter activity": 0}
{"Sequence": "FVKTVEDKYKCEKCHLVLCSPKQTECGHRFCESCMAALLSSSSPKCTACQESIVKDKVF (TRAF3 RING domain (UniProt Q13114))", "lacZ reporter activity": 0}
{"Sequence": "B7 (DEF8 RING domain)", "lacZ reporter activity": 0}
{"Sequence": "B8 (RNF152 RING domain)", "lacZ reporter activity": 0}
{"Sequence": "MNDVLENELQCIICSEYFIEAVTLNCAHSFCSYCINEWMKRKIECPICRKDIKSKTYSL (RNF8 RING domain (UniProt O76064))", "lacZ reporter activity": 0}
{"Sequence": "B9 (TRIM60 RING domain)", "lacZ reporter activity": 0}
{"Sequence": "B10 (RLIM RING domain)", "lacZ reporter activity": 0}
{"Sequence": "LGTKLEAKYLCSACRNVLRRPFQAQCGHRYCSFCLASILSSGPQNCAACVHEGIYEEGIS (TRAF2 RING domain (UniProt Q12933))", "lacZ reporter activity": 0}
{"Sequence": "B11 (RNF122 RING domain)", "lacZ reporter activity": 0}
{"Sequence": "B12 (TRIM37 RING domain)", "lacZ reporter activity": 0}
{"Sequence": "RYRQMEERITCPICIDSHIRLVFQCGHGACAPCGSALSACPICRQPIRDRIQIF (MIB2 RING domain (UniProt Q96AX9))", "lacZ reporter activity": 0}
{"data": "Study 4", "target": "ATF2, bZIP domain (human)", "technique": "DHFR protein complementation", "medium": "yeast", "notes": "single substitutions, most at no-binding floor", "relative to": "wild-type JUN-FOS pair", "direction": "higher = stronger binding", "starting sequence": "JUN, bZIP domain (human); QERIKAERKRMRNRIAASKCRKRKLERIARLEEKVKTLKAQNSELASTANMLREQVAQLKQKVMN; partner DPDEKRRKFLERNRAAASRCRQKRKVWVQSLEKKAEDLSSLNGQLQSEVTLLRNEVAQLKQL"}
{"Change": "S47K", "binding fitness [natural log]": -1.19}
{"Change": "V56R", "binding fitness [natural log]": -1.43}
{"Change": "S43Y", "binding fitness [natural log]": -1.29}
{"Change": "K34C", "binding fitness [natural log]": -1.57}
{"Change": "A49Y", "binding fitness [natural log]": -1.48}
{"Change": "I28N", "binding fitness [natural log]": -1.59}
{"Change": "S43D", "binding fitness [natural log]": -1.32}
{"Change": "R53T", "binding fitness [natural log]": -1.54}
{"Change": "Q55S", "binding fitness [natural log]": -1.41}
{"Change": "V35A", "binding fitness [natural log]": -1.53}
{"Change": "A29K", "binding fitness [natural log]": -1.34}
{"Change": "S47T", "binding fitness [natural log]": -1.29}
{"Change": "R30N", "binding fitness [natural log]": -1.32}
{"Change": "E33A", "binding fitness [natural log]": -1.43}
{"Change": "L52P", "binding fitness [natural log]": -1.53}
{"Change": "L31Q", "binding fitness [natural log]": -1.58}
{"Change": "S47L", "binding fitness [natural log]": -1.43}
{"Change": "A29D", "binding fitness [natural log]": -1.42}
{"Change": "M51H", "binding fitness [natural log]": -1.48}
{"Change": "K39E", "binding fitness [natural log]": -1.29}
{"Change": "T48C", "binding fitness [natural log]": -1.42}
{"Change": "E32K", "binding fitness [natural log]": -1.37}
{"Change": "E54P", "binding fitness [natural log]": -1.54}
{"Change": "T48A", "binding fitness [natural log]": -1.37}
{"note": "Excerpt of the above (study 1):"}
{"Change": "PRARPRLELGNLG [K5P]", "normalised enrichment score": 0.991}
{"Change": "PRARKRLELGNKG [L12K]", "normalised enrichment score": 0.678}
{"Change": "PRARKRRELGNLG [L7R]", "normalised enrichment score": 1.17}
{"Change": "PRHRKRLELGNLG [A3H]", "normalised enrichment score": 0.702}
{"Change": "PRARKRLELGNLL [G13L]", "normalised enrichment score": -0.166}
{"Change": "PRARKRLELGNLV [G13V]", "normalised enrichment score": 0.221}
{"Change": "PTARKRLELGNLG [R2T]", "normalised enrichment score": 1.39}
